Assay results collected from several papers.
Numbered parts are unrelated; each lists some results of a single study.
Sequence of UniProt Q9H0K1 (whole entry, looked up): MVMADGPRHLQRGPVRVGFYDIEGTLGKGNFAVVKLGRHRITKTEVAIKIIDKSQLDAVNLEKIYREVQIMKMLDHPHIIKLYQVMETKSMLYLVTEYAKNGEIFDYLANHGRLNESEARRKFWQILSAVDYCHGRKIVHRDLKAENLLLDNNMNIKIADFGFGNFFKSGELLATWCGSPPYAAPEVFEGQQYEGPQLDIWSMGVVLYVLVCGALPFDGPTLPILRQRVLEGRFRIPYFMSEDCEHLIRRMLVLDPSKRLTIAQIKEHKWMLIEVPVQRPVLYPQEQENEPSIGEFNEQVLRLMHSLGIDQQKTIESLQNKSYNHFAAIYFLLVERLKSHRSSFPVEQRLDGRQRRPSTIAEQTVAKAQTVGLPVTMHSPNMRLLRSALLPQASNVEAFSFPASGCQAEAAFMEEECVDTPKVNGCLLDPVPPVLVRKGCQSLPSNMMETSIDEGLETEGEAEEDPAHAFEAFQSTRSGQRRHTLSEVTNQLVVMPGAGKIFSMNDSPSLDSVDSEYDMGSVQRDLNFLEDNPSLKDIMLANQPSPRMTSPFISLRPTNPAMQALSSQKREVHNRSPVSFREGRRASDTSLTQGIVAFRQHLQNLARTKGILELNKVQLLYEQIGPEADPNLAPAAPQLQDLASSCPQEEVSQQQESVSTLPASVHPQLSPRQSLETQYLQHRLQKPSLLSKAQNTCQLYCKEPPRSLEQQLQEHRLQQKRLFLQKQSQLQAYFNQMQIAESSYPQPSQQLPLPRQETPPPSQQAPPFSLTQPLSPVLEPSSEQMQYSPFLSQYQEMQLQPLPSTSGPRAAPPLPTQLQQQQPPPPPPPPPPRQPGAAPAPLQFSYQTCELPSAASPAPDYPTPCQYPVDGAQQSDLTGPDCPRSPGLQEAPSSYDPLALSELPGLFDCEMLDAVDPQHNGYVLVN
Sequence of UniProt O15146 (whole entry, looked up): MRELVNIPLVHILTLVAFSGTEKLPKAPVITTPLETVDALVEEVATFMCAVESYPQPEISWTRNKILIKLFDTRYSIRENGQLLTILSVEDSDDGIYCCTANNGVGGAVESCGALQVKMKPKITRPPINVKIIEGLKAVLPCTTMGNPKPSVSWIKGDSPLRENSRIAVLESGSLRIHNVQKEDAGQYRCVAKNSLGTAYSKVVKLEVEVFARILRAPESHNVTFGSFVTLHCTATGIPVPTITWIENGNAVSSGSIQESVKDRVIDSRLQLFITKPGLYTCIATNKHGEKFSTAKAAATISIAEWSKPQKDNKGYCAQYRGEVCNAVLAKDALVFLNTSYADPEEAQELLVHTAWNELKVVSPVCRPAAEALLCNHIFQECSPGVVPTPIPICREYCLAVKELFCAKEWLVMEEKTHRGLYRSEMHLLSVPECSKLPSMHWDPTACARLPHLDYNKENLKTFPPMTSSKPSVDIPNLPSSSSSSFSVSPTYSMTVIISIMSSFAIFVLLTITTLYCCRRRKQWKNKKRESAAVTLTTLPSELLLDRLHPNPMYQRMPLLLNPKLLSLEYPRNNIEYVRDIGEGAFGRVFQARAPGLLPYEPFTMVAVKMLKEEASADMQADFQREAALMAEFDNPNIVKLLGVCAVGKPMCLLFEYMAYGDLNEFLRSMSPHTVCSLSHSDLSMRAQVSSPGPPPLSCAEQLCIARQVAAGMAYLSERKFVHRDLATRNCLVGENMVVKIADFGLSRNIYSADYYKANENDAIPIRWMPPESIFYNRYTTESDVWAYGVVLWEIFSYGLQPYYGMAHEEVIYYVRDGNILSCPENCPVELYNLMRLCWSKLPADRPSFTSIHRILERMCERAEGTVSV
Sequence of UniProt P11309 (whole entry, looked up): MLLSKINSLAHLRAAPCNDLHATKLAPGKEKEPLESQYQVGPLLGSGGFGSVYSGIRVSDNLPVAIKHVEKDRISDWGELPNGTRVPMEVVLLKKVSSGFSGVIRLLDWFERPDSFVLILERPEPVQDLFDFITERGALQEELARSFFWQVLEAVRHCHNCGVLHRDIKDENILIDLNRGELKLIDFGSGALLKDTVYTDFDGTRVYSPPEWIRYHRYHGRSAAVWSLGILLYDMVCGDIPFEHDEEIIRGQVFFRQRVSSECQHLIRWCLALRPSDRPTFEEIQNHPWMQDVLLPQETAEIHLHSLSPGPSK
Sequence of UniProt P42336 (whole entry, unmodified, looked up): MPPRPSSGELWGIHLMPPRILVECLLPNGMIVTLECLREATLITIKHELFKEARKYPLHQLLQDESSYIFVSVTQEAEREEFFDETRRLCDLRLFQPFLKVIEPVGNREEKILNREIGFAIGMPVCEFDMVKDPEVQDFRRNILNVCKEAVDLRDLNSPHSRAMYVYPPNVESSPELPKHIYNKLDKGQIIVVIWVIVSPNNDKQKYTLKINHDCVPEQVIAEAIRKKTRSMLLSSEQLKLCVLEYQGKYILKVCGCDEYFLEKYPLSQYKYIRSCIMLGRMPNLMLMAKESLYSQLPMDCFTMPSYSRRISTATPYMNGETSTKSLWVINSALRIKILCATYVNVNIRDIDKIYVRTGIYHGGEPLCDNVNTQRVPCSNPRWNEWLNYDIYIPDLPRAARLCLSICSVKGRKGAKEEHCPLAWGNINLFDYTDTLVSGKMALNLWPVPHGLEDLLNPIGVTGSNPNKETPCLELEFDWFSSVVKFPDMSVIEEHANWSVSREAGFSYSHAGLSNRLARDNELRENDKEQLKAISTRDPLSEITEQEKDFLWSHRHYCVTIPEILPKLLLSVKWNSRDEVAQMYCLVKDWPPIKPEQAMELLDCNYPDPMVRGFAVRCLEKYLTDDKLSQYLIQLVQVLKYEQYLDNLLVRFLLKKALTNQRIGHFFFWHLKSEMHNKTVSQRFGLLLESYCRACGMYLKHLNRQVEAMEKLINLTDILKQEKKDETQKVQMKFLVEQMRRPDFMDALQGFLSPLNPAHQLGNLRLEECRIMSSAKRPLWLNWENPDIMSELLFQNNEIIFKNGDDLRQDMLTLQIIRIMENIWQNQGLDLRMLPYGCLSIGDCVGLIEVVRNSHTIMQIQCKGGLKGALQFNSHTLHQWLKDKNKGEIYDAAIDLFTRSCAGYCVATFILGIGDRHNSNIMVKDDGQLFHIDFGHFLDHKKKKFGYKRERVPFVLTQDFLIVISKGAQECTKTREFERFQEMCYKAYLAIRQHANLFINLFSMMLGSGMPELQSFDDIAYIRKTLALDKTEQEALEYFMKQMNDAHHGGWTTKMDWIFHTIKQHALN
Sequence of UniProt P37023 (whole entry, looked up): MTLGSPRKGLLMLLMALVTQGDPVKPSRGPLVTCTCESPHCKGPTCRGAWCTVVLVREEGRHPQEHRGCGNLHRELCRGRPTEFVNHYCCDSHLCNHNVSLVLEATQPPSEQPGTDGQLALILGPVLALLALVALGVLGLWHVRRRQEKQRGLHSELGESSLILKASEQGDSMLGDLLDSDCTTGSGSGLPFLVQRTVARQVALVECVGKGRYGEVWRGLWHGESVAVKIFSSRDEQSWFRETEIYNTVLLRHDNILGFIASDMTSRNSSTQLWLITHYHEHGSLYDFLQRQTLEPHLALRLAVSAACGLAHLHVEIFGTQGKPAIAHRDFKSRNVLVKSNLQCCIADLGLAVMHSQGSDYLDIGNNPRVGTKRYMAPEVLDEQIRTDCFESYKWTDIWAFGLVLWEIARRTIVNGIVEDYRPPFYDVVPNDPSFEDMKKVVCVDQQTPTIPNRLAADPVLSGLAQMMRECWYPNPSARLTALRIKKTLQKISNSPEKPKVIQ
Sequence of UniProt Q9HBY8 (whole entry, looked up): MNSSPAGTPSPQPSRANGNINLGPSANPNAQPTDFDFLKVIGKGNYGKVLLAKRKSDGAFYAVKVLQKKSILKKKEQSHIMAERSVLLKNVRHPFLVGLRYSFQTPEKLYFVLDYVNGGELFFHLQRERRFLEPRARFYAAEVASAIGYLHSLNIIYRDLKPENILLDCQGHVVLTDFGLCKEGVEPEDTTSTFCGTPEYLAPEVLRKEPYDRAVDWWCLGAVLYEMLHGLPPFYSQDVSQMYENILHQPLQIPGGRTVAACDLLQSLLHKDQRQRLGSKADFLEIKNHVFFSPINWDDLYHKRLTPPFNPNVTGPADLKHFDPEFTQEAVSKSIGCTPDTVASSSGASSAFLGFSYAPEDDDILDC
Sequence of UniProt P49760 (whole entry, looked up): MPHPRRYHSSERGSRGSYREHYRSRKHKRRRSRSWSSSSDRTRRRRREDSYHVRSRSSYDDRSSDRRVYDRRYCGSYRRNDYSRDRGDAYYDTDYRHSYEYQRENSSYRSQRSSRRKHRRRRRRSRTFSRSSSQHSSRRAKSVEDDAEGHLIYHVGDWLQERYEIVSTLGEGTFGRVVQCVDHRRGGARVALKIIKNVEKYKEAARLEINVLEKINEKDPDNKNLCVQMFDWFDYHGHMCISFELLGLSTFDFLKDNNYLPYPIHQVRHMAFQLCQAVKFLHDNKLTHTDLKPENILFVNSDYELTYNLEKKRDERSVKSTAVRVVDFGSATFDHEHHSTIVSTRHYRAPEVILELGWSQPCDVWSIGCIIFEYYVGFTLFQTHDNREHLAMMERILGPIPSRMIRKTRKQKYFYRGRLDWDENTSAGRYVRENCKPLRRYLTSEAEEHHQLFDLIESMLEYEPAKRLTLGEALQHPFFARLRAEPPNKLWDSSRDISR
Sequence of UniProt P45985 (whole entry, looked up): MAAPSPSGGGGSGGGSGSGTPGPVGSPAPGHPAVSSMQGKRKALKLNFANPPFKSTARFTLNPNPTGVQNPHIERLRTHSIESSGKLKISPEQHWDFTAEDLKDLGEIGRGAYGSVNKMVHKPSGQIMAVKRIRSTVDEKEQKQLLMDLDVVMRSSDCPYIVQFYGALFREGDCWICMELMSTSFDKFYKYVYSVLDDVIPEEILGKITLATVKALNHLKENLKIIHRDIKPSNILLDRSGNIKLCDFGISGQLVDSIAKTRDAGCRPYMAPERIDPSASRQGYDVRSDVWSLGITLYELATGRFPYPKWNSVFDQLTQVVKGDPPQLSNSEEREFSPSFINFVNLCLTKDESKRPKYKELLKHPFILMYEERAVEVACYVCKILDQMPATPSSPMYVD

Study 1
Compound: Cn1cc(/C=C2\C(=O)Nc3ccc(S(N)(=O)=O)cc32)c2ccccc21
Read-out: enzyme activity
Mode: inhibitor
Concentration: 0.5 µM
Reference: control
target	remaining activity
PRKCQ (Homo sapiens, UniProt Q04759)	103%
RPS6KA3 (Homo sapiens, UniProt P51812)	12.4%
IGF1R (Homo sapiens, UniProt P08069)	87.9%
RPS6KB2 (Homo sapiens, UniProt Q9UBS0)	94.6%
PRKCZ (Homo sapiens, UniProt Q05513)	105%
BRSK2 (Homo sapiens, UniProt Q8IWQ3)	65.5%
PAK5 (Homo sapiens, UniProt Q9P286)	75.3%
ACVRL1 (Homo sapiens, UniProt P37023)	99.1%
CLK2 (Homo sapiens, UniProt P49760)	38.1%
PIM1 (Homo sapiens, UniProt P11309)	96.5%
SIK2 (Homo sapiens, UniProt Q9H0K1)	81.4%
MELK (Homo sapiens, UniProt Q14680)	63%
SGK2 (Homo sapiens, UniProt Q9HBY8)	80.7%
MUSK (Homo sapiens, UniProt O15146)	105%
TYRO3 (Homo sapiens, UniProt Q06418)	90.5%
FLT1 (Homo sapiens, UniProt P17948)	70.1%

Study 2
Structure (SMILES): CNC(=O)Nc1ccc2c(c1)CC[C@@]21OC(=O)N(CC(=O)N(Cc2ccc(F)cc2)[C@@H](C)C(F)(F)F)C1=O
Read-out: cell-free assay
Method: competition with immobilised ligand
Concentration: 1 µM
target	remaining binding [%]
LIM domain kinase 2 (LIMK2, Homo sapiens, UniProt P53671)	88
SIK2 (Homo sapiens, UniProt Q9H0K1)	88
PIK3CA (Homo sapiens, UniProt P42336, Q546K)	79
MKNK2 (Homo sapiens, UniProt Q9HBH9)	82
CSNK2A2 (Homo sapiens, UniProt P19784)	100
DYRK1B (Homo sapiens, UniProt Q9Y463)	81
STK10 (Homo sapiens, UniProt O94804)	100
MAP2K4 (Homo sapiens, UniProt P45985)	100

Study 3
Target: Interferon regulatory factor 7, full length, phosphomimetic (IRF7, Homo sapiens, UniProt Q92985, residues 1-503, S471D/S472D/S475D/S476D/S477D/S483D/S484D/S487D)
Method: protein-binding microarray
Molecule type: double-stranded DNA, one strand shown
Matrix: in vitro
Concentration: 2200 nM top
Notes: 60-bp whole probe
Added: salmon DNA 0.4 mg/ml
Reference: random background probes
Direction: higher = stronger binding
All sequences stand within: GCCTAGCAC … GTCTTGATTCGCTTGACGCTGCTG
Residues (chain): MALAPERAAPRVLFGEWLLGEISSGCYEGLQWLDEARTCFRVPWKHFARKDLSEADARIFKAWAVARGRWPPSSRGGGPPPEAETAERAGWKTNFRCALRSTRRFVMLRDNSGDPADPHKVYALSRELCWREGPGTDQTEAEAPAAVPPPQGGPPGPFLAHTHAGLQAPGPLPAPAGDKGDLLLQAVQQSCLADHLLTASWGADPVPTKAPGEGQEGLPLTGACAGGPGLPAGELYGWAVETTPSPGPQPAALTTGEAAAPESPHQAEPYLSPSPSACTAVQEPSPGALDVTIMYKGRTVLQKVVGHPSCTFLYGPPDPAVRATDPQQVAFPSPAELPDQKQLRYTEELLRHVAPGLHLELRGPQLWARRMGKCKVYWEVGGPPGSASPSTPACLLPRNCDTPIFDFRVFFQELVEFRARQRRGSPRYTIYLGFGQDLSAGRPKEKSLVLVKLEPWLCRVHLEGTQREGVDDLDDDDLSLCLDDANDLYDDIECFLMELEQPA
Sequence	fitted relative affinity [z-score]
GACGGTTTCCTGTTCCTGACGTGCTAG	3.73
TCATGTCTTCCCCTCTCACTGTGCTAG	1.94
CACGGTTTCCTTATCCTGACGTGCTAG	3.21
GTCATTTTCTCTTATTCTAAGTGCTAG	2.79
TTAGATTTCGGGTCTGGATTAGTGCTA	2.97
GACGGACTACTTTTCCTGACGTGCTAG	0.832
AGAGCCTGGGGATGCAGAGAGTGCTAG	-0.991
GACGGACAGGGTCTCGGGACGTGCTAG	-1.13

Further values, each from its own experiment
Structure (SMILES)	test system	endpoint	result
CCOC(=O)[C@@H]1CSCC(=O)N[C@@H](CC)C(=O)N(C)[C@@H](C)C(=O)N[C@@H](CC(C)C)C(=O)N2CCC[C@H]2C(=O)N(CC(C)C)CC(=O)N[C@H](CC(C)C)C(=O)N(C)[C@H](C)C(=O)N[C@@H](CC(C)C)C(=O)N1C	hydrocarbon/water	logD	0.726

Excerpt of the above (study 1):
target	remaining activity
IGF1R (Homo sapiens, UniProt P08069)	87.9%
PAK5 (Homo sapiens, UniProt Q9P286)	75.3%
BRSK2 (Homo sapiens, UniProt Q8IWQ3)	65.5%
SIK2 (Homo sapiens, UniProt Q9H0K1)	81.4%
RPS6KA3 (Homo sapiens, UniProt P51812)	12.4%
CLK2 (Homo sapiens, UniProt P49760)	38.1%
